Results pooled from the literature.
A part holds a random share of what one study measured. Changes are numbered by the printed parent chain.

Sample 1 — technique: protein-binding microarray; form: double-stranded DNA, one strand shown; medium: in vitro; concentration: 2200 nM top; notes: 60-bp whole probe; added: salmon DNA 0.4 mg/ml; baseline: random background probes; reading: higher = stronger binding; constant ends, left off below: GCCTAGCAC … GTCTTGATTCGCTTGACGCTGCTG
Target: Interferon regulatory factor 7, full length, phosphomimetic (IRF7, Homo sapiens, UniProt Q92985, residues 1-503, S471D/S472D/S475D/S476D/S477D/S483D/S484D/S487D)
Construct (chain): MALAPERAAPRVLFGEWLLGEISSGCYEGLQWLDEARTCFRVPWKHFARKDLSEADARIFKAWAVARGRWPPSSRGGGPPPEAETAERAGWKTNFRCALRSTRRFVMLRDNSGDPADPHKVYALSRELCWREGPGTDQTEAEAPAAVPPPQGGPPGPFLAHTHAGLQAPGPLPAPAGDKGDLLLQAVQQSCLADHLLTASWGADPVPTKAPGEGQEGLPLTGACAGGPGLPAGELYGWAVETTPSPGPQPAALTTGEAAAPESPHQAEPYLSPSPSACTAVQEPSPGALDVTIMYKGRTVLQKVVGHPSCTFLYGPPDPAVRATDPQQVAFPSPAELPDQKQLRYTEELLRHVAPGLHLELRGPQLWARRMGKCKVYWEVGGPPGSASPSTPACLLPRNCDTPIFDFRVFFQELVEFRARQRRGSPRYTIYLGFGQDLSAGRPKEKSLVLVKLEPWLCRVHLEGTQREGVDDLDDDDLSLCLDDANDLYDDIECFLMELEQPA
Strand | fitted relative affinity [z-score]
TTAGGTCTCAGTCTCGGTTAGTGCTAG | 0.668
TCAGTTGTACTTTCTATCACTGTGCTA | 2.21
GACGGACTGCTTCTCCTTACGTGCTAG | 0.806
GACTATCTCAGTTTCGAGACGTGCTAG | 3.6
TTAGAACTGAGCATCGATTAGTGCTAG | -0.577

Mixed results — CCNA1: CCNA1, cyclin fold, Cln2 fusion (human)
UNK zinc fingers 1-6, SBP tag: RING finger protein unkempt homolog, zinc fingers 1-6, SBP tag (UNK, Homo sapiens, UniProt Q9C0B0, residues 30-357)
Chain of UniProt Q9C0B0 (30-357, looked up): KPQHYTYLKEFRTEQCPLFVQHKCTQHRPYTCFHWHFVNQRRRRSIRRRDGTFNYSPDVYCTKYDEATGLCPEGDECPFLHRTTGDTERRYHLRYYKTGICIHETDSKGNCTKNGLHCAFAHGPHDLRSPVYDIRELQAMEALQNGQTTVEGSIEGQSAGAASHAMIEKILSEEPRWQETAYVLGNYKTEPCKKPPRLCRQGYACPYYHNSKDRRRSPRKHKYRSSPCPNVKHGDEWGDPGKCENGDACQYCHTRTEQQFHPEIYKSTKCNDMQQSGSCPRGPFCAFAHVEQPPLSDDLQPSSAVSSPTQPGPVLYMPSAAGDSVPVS
P1: CDC6 docking peptide (human); TLKGRRLVFDNQL; partner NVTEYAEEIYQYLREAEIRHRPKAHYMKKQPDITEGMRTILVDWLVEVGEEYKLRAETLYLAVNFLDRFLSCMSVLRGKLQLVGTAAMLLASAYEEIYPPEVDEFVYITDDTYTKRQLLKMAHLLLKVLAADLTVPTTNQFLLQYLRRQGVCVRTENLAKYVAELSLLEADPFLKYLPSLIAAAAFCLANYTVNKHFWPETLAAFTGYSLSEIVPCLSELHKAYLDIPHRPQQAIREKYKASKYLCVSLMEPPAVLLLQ
Molecule | target | assay | system | conditions | how to read | quantity | result
GGGAGUUCUACAGUCCGACGAUCCAUUAACACACAAAAUGUCUCCAGGGGGGUAUUAGAUUUGAUUUCUUACAUACAAAACAAACAAAACAAACAAACCAUUUUUAAAGUAGAAGAGGGUUUUAGAUAGAAAAUGACAUAUUCCAACAGAGGAUUGAGCAUCA | UNK zinc fingers 1-6, SBP tag | RNA Bind-n-Seq | RNA, in vitro | 100 nM, RNA with constant flanks, vertebrate orthologous sites, ends assumed | baseline: input RNA pool, higher = stronger binding | bound/input enrichment | 1.9 ratio
PhoQ, residues 284 288 289 292 302 303 GANMMA | PhoP, residues 12 14 15 18 19 FWNTL (Escherichia coli, UniProt P23836) | Sort-seq, measured: YFP reporter | E. coli | PhoQ-PhoP variant library, added: 10 µM Mg2+ | baseline: high Mg2+ state, higher = stronger signaling | fold induction | 0.986
GGGAGUUCUACAGUCCGACGAUCUCAUAAUCACUAAUUGUAUUCUGAAUAAAGUGUAACAUUGUGUAGCCUUUUUGUAUAAAAUAGAGAAAUAGAAAUGGUCCAAUUAGUUUCCUUUUUAAUAUGCUUAAAAUAAGCAGGUGGCAACAGAGGAUUGAGCAUCA | UNK zinc fingers 1-6, SBP tag | RNA Bind-n-Seq | RNA, in vitro | 100 nM, RNA with constant flanks, vertebrate orthologous sites, ends assumed | baseline: input RNA pool, higher = stronger binding | bound/input enrichment | 1.72 ratio
P1 F9N | CCNA1 | yeast growth competition, sequencing | yeast | weak parent motif | baseline: not given, higher = stronger binding | normalised enrichment score | 0.165
GGGAGUUCUACAGUCCGACGAUCCAGCCUCAGAGCCCAGACUUCCUGGAUAUUACCAACCCUAAAGCGGUAUUAGAAAAUGCAUUGAGAAACUUCGCCUGUCUGACCACCGGAGAUGUGAUUGCUAUCAACUAUAAUGAAAAGCAACAGAGGAUUGAGCAUCA | RING finger protein unkempt homolog, zinc fingers 1-6, GST-SBP tag (UNK, Homo sapiens, UniProt Q9C0B0, residues 30-357) | RNA Bind-n-Seq | RNA, in vitro | not given, RNA with constant flanks, human-mouse chimeric sites, ends assumed | baseline: input RNA pool, higher = stronger binding | bound/input enrichment | 0.536 ratio
P1 L2E | CCNA1 | yeast growth competition, sequencing | yeast | weak parent motif | baseline: not given, higher = stronger binding | normalised enrichment score | -0.256
GGGAGUUCUACAGUCCGACGAUCCUCUCUUAGUGAUAGUAUUCCAUCUGUAGCAGAUUCACACUCGAGUCAUUUUUCUGAGUUUAGUUGCUCAGAUAUGGAAAGUAUGAAAACCUCCUGUAGCCAUGGUUCCAGUGACUAUCACAACAGAGGAUUGAGCAUCA | UNK zinc fingers 1-6, SBP tag | RNA Bind-n-Seq | RNA, in vitro | 100 nM, RNA with constant flanks, vertebrate orthologous sites, ends assumed | baseline: input RNA pool, higher = stronger binding | bound/input enrichment | 0.577 ratio

Some of these lines once more (mixed results):
Molecule | target | assay | system | conditions | how to read | quantity | result
GGGAGUUCUACAGUCCGACGAUCCAUUAACACACAAAAUGUCUCCAGGGGGGUAUUAGAUUUGAUUUCUUACAUACAAAACAAACAAAACAAACAAACCAUUUUUAAAGUAGAAGAGGGUUUUAGAUAGAAAAUGACAUAUUCCAACAGAGGAUUGAGCAUCA | UNK zinc fingers 1-6, SBP tag | RNA Bind-n-Seq | RNA, in vitro | 100 nM, RNA with constant flanks, vertebrate orthologous sites, ends assumed | baseline: input RNA pool, higher = stronger binding | bound/input enrichment | 1.9 ratio
